Results from different studies.
Protocols differ between the studies behind these lines. Numbers after ± are the reported error.
T1: Yku70/Yku80 (Saccharomyces cerevisiae); chain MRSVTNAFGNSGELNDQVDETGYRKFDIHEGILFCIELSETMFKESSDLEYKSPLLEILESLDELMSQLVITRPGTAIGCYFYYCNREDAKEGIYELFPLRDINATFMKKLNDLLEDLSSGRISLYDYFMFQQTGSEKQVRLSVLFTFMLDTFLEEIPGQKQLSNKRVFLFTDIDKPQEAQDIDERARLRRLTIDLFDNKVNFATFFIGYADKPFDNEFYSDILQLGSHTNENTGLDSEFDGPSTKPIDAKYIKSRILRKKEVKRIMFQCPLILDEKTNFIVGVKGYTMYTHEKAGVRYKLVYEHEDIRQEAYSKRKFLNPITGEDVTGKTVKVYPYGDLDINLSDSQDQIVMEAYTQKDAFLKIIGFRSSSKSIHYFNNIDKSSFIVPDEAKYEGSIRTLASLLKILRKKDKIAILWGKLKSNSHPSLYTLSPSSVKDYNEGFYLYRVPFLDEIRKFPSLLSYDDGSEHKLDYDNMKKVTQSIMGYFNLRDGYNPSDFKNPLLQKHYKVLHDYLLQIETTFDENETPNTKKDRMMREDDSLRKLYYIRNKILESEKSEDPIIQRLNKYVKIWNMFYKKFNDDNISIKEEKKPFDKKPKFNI; chain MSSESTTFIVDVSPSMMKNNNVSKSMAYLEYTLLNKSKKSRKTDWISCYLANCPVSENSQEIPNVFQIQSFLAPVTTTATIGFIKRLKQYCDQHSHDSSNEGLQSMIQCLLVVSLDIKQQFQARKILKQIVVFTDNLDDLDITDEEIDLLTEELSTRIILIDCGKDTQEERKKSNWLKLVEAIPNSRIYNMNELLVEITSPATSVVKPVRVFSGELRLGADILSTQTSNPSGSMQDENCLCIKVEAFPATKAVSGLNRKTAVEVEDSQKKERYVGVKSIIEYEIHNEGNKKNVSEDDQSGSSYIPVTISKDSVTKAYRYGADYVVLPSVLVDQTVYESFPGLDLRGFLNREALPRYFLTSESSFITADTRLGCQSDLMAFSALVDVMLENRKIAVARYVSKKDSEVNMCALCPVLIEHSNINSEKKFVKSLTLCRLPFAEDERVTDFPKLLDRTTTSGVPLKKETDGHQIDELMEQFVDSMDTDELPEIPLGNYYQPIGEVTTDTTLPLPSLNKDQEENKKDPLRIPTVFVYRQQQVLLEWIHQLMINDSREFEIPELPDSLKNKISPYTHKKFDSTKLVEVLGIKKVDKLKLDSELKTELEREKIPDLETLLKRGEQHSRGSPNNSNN
UniProt Q6R0H1, sequence (whole entry, looked up): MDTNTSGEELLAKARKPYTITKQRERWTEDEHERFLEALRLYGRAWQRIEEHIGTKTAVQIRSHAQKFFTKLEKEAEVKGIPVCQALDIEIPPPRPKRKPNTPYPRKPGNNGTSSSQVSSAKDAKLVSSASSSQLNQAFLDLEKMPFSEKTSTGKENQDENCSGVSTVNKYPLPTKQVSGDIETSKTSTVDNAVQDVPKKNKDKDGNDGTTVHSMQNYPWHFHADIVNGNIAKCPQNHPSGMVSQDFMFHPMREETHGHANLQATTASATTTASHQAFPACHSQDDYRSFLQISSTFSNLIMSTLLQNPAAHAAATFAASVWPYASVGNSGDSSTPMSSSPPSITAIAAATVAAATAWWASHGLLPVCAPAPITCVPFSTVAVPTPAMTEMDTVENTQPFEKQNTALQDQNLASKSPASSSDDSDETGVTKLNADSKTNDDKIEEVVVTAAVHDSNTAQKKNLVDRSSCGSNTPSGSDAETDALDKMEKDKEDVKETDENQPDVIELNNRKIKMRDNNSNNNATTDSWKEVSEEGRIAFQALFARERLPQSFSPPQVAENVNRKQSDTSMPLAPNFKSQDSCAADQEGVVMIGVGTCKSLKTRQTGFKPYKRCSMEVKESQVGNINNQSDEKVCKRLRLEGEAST
UniProt Q61039, sequence (whole entry, unmodified, looked up): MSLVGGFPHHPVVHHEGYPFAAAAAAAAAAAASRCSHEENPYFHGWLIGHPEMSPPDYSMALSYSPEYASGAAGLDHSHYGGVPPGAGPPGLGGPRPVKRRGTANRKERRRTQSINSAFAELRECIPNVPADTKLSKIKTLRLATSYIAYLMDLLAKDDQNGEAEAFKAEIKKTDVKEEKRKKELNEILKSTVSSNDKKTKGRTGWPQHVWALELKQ
UniProt Q4VGL6, sequence (whole entry, looked up): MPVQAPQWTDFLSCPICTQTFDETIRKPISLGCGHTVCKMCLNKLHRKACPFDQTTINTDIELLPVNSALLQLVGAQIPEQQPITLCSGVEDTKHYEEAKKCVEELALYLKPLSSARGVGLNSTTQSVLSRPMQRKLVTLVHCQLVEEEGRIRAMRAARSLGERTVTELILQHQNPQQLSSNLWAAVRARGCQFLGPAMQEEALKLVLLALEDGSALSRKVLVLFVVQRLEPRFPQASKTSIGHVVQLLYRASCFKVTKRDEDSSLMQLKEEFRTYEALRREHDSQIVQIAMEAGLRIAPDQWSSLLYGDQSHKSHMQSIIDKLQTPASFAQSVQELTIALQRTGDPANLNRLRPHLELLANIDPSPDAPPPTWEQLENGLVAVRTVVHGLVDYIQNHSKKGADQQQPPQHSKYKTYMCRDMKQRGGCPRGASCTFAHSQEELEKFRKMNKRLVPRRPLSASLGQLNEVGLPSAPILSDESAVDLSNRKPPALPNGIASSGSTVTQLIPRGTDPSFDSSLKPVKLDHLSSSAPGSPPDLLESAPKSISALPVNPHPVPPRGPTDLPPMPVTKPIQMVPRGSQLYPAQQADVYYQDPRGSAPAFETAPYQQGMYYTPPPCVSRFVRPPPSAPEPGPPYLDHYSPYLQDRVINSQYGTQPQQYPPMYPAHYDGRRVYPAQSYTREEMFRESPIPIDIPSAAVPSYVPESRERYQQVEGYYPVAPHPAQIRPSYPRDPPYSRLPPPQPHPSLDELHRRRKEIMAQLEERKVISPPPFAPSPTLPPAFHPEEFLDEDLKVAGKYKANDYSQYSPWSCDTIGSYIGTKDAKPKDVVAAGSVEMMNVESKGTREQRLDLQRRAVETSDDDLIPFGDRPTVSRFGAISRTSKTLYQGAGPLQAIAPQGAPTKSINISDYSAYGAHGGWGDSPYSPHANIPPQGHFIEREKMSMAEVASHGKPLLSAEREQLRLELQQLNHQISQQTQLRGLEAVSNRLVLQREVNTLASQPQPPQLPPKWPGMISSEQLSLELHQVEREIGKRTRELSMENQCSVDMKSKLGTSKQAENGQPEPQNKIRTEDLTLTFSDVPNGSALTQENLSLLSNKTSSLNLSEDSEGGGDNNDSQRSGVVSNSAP
UniProt O00425, sequence (whole entry, looked up): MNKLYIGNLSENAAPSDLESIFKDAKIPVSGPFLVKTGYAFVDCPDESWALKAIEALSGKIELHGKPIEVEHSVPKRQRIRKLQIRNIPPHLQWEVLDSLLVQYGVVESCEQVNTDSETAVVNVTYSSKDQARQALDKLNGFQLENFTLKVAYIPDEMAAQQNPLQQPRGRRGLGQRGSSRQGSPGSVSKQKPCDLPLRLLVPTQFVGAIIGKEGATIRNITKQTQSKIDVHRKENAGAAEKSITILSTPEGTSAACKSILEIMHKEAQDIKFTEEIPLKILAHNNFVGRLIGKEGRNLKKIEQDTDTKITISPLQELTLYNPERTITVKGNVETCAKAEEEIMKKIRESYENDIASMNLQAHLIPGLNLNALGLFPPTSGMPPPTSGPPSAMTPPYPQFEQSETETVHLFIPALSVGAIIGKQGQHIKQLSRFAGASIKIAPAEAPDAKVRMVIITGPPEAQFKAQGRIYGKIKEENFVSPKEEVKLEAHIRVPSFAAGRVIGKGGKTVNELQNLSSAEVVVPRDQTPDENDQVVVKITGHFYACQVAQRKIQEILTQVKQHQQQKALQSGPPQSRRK
UniProt P55265, sequence (whole entry, looked up): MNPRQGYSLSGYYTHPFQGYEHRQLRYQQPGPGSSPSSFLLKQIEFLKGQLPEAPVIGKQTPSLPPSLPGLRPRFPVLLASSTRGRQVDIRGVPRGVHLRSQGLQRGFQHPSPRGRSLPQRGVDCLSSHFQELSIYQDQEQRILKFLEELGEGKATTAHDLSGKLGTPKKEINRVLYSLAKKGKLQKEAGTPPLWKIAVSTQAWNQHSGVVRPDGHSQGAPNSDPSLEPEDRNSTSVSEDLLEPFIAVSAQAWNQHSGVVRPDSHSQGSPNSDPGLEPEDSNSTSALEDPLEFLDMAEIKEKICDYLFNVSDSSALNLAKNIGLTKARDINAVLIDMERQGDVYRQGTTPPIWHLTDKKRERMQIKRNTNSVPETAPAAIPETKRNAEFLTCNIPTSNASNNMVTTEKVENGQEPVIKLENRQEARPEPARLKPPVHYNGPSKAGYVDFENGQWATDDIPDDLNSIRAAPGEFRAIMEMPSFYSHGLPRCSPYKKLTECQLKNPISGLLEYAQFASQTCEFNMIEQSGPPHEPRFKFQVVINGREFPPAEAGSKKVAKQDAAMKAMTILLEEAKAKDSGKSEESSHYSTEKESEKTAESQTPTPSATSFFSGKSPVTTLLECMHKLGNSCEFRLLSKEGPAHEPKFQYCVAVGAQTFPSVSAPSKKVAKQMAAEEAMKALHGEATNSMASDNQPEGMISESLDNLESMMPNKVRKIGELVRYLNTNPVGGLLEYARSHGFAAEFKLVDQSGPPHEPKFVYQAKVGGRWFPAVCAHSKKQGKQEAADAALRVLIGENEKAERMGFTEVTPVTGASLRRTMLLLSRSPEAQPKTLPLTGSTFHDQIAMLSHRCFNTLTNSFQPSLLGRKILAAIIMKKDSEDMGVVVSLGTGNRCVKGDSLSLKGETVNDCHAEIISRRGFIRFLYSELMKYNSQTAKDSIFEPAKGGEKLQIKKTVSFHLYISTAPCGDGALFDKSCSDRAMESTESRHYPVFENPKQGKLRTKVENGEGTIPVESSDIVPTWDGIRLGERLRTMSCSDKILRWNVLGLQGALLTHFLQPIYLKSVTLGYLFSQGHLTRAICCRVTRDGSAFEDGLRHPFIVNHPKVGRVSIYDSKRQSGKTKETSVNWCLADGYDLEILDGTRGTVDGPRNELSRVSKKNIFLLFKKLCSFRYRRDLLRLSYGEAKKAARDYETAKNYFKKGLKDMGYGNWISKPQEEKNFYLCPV
UniProt P48431, sequence (whole entry, unmodified, looked up): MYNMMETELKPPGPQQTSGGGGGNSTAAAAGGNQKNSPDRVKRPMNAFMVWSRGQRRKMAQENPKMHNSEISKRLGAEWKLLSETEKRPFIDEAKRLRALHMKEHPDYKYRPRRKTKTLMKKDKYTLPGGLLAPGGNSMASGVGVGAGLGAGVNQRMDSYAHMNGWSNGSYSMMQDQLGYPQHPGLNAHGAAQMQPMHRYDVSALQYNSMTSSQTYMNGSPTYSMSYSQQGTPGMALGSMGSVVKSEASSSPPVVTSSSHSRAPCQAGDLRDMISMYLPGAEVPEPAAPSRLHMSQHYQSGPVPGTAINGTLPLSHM
UniProt Q92674, sequence (whole entry, looked up): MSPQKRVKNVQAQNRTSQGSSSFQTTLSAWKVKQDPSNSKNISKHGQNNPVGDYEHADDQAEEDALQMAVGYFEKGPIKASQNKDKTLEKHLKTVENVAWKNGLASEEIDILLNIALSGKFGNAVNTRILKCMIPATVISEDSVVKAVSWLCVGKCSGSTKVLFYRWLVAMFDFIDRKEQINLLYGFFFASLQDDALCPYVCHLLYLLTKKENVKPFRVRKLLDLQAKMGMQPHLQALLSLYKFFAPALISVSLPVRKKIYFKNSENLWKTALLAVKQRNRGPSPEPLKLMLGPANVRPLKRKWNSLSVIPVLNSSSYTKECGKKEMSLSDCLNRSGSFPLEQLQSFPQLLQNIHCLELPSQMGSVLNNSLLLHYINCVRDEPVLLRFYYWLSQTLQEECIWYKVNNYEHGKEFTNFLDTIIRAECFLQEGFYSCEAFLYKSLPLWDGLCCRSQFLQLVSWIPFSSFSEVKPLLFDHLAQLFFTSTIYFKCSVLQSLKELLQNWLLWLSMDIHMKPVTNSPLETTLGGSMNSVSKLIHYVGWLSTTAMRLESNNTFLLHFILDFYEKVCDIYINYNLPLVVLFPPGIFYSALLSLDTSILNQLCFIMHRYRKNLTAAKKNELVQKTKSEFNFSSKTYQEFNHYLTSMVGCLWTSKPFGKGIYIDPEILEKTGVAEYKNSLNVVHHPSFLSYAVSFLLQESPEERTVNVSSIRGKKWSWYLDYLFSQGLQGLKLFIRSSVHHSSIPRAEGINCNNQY
UniProt P27245, sequence (whole entry, unmodified, looked up): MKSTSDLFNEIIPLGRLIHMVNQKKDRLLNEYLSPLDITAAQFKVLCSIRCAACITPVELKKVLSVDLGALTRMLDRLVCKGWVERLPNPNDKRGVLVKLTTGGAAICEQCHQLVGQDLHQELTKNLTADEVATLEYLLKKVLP

| Molecule | tested on | assay | system | setting | endpoint | result |
| --- | --- | --- | --- | --- | --- | --- |
| GAACAUAGAAAGAGAGAGAUAUAAA (ssRNA) | ECT2 full length assumed (Arabidopsis thaliana, UniProt Q9LJE5) | EMSA | RNA |  | binding | no binding |
| GTGTGGTTAATATGGTGTGGTTAATATGGTGTGGTTAATATGGTGTGGTTAATATG (dsDNA) | RNJ 604-911 W821A (Arabidopsis thaliana, UniProt Q84W56) | EMSA | double-stranded DNA, one strand shown |  | binding | no binding |
| GGCCUUGCACAGUAGUCCAGCGGUAAGGGUGUAGAUCAGGCCCGUCUGUUUCUCCCCCGGAGCUCGCUCCCUUGGCUUCCCUUAUAUAUUUUAACAUCAGAAACAGACAUUAAACAUCUACUGAUCCAAUUUCGCCGGCGUACGGCAUGAUGAUCCGGCGAUGAAAAA (structured RNA) | Reverse transcriptase-like protein 275-1114 D996A (Bombyx mori, UniProt V9H052) | competition | folded RNA |  | binding | binds |
| AGCAAAAGTAATTTTTTTTAGAAAAGAAAAGAGTTAAAGA (dsDNA) | NAC domain-containing protein full length assumed (Musa acuminata, UniProt A0A804JLK1) | EMSA | double-stranded DNA, one strand shown |  | binding | binds |
| ACCAAGCGTGATGCGGAGCCGCCGCCGCCGCCG (dsDNA; blunt) | WT1 zinc finger domain 323-435 (Homo sapiens) | EMSA | double-stranded DNA, one strand shown |  | binding | no binding |
| TTTTTTTTTTTTTTTTTTTTTTTTTTTTTTTTTTTTTTTTTTTTTTTTTTTTTTTTTTTTTTTTT (ssDNA) | ssb 2-178 (Escherichia coli, UniProt P0AGE0) | EMSA | single-stranded DNA | with: ATPγS | binding | binds |
| AAACGCCAGACACACGCGCGAAAAGAAGCGCG (dsDNA) | PFD3 1-195 (Arabidopsis thaliana, UniProt P57741) | EMSA | double-stranded DNA, one strand shown |  | binding | no binding |
| TTTTTTTTTTTTTTTTTTTTTTTTTTTTTTTTTTTTTTTTTTTTTTTTTTTTTTTTTTTTTTTTTTTTTT (ssDNA) | RAD51 full length assumed Y112E/Y253K (Saccharomyces cerevisiae, UniProt P25454) | fluorescence anisotropy | single-stranded DNA | with: ATP | binding | no binding |
| TTAAAACATGTTGAGCTACAGCACCAGATTCAGCAATTAAGCTCTAAGCCATCCGCAAAAATGACCTCTTATCAA (ssDNA) | MGM101 23-269 (Saccharomyces cerevisiae, UniProt P32787) | native MS | single-stranded DNA |  | binding | binds |
| ATAAGTCACATGATGATATTTGATTTTATTATATTTTTAAAAAAAGTAAAAAATAAAAAGTAGTTTATTTTTAAAAAATAAAATTTAAAATATTTCACAAAATGATTTCCGAA (dsDNA) | CENP-I 1-229 R216D (Thermochaetoides thermophila, UniProt G0SFF7) | EMSA | double-stranded DNA, one strand shown |  | binding | binds |
| GGTTAGGGTTAG (ssDNA; 5'-phosphate) | POT1 1-299 R83A (Homo sapiens, UniProt Q9NUX5) | EMSA | single-stranded DNA |  | binding | binds |
| AACUACAGGACUAUUUGACAUCAUAAUAAA (ssRNA) | IGF2BP3 1-579 (Homo sapiens, UniProt O00425) | pull-down | RNA |  | binding | binds |
| AGGGTTAGGGTTAGGGTTAGGG (G-quadruplex DNA; hybrid) | PARP2 full length, 1-570 (Homo sapiens) | EMSA | folded DNA |  | binding | no binding |
| GCTTGGGAGGGCCATCTGGCATTG (dsDNA) | Hand2 full length assumed N105A/E108A (Mus musculus, UniProt Q61039) | EMSA | double-stranded DNA, one strand shown |  | binding | no binding |
| CATCGCATTGAACAAAACTTGAACCGATTTAGCAAAACGTGGCATCGGTCAATTCATTCATTTGACTTATACTTGCCTGGGCAATATTATCCCCTGCAAC (dsDNA) | marR residues 1-144 C47S/C51S/C54S/C108S/C111S (Escherichia coli, UniProt P27245) | EMSA | double-stranded DNA, one strand shown |  | binding | binds |
| TCTCCTTTTTGTTTGACAGTGATCCAAAAA (dsDNA) | WRKY domain-containing protein 1-253 (Triticum aestivum, UniProt A0A3B5Y6J9) | EMSA | double-stranded DNA, one strand shown |  | binding | binds |
| GCGCGCGCGC (dsRNA; blunt ends) | DHX9 1-91 (Homo sapiens, UniProt Q08211) | EMSA | double-stranded RNA, one strand shown |  | binding | binds |
| TTTTTTTTTTCGTATGGCACGGGGTTGGTGTTGGGTTGG (ssDNA; 5'-phosphate; G-quadruplex) | CSN2 16-224 (Bos taurus, UniProt P02666) | electrolyte-gated transistor sensor | single-stranded DNA |  | binding | no binding |
| GGTGACACAAGAAAGGTATCTTTG (dsDNA) | SPL2 1-415 (Malus domestica, UniProt D9ZJC1) | EMSA | double-stranded DNA, one strand shown |  | binding | no binding |
| colistin | Escherichia coli | broth microdilution | clinical isolate RKI-No_590/16 |  | MIC | ≤ 0.5 µg/mL |

| Molecule | tested on | assay | system | setting | endpoint | result |
| --- | --- | --- | --- | --- | --- | --- |
| AATTAGTCGCCACGTGTTTTACTTTA (dsDNA) | HY5 1-158 (Solanum lycopersicum, UniProt Q9SM50) | EMSA | double-stranded DNA, one strand shown |  | binding | binds |
| DNA 1 CACTGGCCGTCTTACGGTCGCTCTGCTCGACG / DNA 2 CGACCGTAAGACGGCCAGTG (dsDNA; 20 bp, 3' 12 nt overhang) | RECQL 63-592 K325A (Bos taurus, UniProt A0JN36) | fluorescence anisotropy | double-stranded DNA | with: Mg2+ 3 mM | Kd | 18.5 ± 2.6 nM |
| CCAATCAATAGCTGCGGCCTGCGCAGGAGA (dsDNA) | ERF-D2 full length assumed (Solanum lycopersicum, UniProt A0A3Q7JX06) | EMSA | double-stranded DNA, one strand shown | competitor | binding | binds |
| GGTGGTGGTGGTGGTGGT (ssDNA) | recA full length assumed F204E (Escherichia coli, UniProt P0A7G6) | fluorescence anisotropy | single-stranded DNA | with: ATPγS | binding | binds |
| GGTTAGGGTTAGGGTTAGGGTTAG (ssDNA; 5'-phosphate) | Pot1 1-301 (Mus musculus, UniProt Q91WC1) | EMSA | single-stranded DNA |  | binding | binds |
| AGAAGAAGAAGAAGA (ssRNA) | EIF4A1 1-406 (Homo sapiens, UniProt P60842) | fluorescence polarization | RNA | with: ATP, silvestrol 10 µM | binding | binds |
| ATTTTTA (ssDNA) | ELAVL1 2-99 (Homo sapiens, UniProt Q15717) | BLI | single-stranded DNA | pH 5.5 | binding | binds |
| TAATTTTAAACAAAATATTAACAATTCCCCGCGAACCCTTGTGAATAATATTTAAAACTT (dsDNA) | LHY full length assumed (Arabidopsis thaliana, UniProt Q6R0H1) | EMSA | double-stranded DNA, one strand shown |  | binding | no binding |
| ACCAAGCGGGATTCGGAGCCGCCGCCGCCGCCG (dsDNA; blunt) | WT1 zinc finger domain 323-435 (Homo sapiens) | EMSA | double-stranded DNA, one strand shown |  | binding | no binding |
| AUUUAUUUAUUUAUUUAUUUAUUUAUUUAUUUAUUUAUUUA (ssRNA) | NR1I2 (Homo sapiens, UniProt O75469) | EMSA | RNA | 200 nM RNA | binding | no binding |
| AGTCCGGGGGTTCCGTTAATGTTTAATCAGATAGGATC (dsDNA) | HNF1A 1-631 C241S (Homo sapiens, UniProt P20823) | SPR | double-stranded DNA, one strand shown | NaHS pretreated | binding | binds |
| AAGGTGTGTGGGTGTGGTAA (dsDNA) | RAP1/Yku70/Yku80 (Saccharomyces cerevisiae) | EMSA | double-stranded DNA, one strand shown |  | binding | binds |
| DNA 1 AGATGTCCTAGTTTAGTTGGCTGATCGTTG / DNA 2 CAACGATCAGCCAAC (dsDNA; 5' 15 nt overhang; 3'-recessed) | tnsE full length assumed R388A (Escherichia coli, UniProt P05845) | EMSA | double-stranded DNA |  | binding | binds |
| AAAATTCCGTGGAAAACC (dsDNA) | PDR3 1-184 (Saccharomyces cerevisiae, UniProt P33200) | competition | double-stranded DNA, one strand shown |  | binding | binds |
| GACTCTTTGTTTGGC (dsDNA; blunt) | SOX2 39-118 Y108A (Homo sapiens, UniProt P48431) | NMR | double-stranded DNA, one strand shown |  | binding | binds |
| UUUUU (ssRNA) | Rc3h1 411-454 (Mus musculus, UniProt Q4VGL6) | NMR | RNA |  | binding | binds |
| GAGCTGCAAGTGGATATTTGGACCTCTTTGAGGTCTTCGTTGGAAACGGGATTTCCTCATATAATGTTACACAGAAGAATTCTCAGTAACTTATTTGTGGTGTGTGTATTCAACTCACAGAGGTGAACCTTCCTTCAGAAAGAGCAGATTTGAAACACTCTTTTTGTACCC (dsDNA) | CENPI 57-281 (Homo sapiens, UniProt Q92674) | EMSA | double-stranded DNA, one strand shown |  | binding | binds |
| GTGGTGTGTGGGTGTGTGTGT (dsDNA) | T1, Yku70/Yku80 (Saccharomyces cerevisiae) | cryo-EM | double-stranded DNA, one strand shown |  | binding | binds |
| GTGTTCGGACTCTGCCTCAAGACGGTAGTCAACGTGCTTG (dsDNA) | XRS2 1-325 R48E (Saccharomyces cerevisiae, UniProt P33301) | EMSA | double-stranded DNA, one strand shown | abolished | binding | no binding |
| CGCGCGCGCGCG (dsRNA; blunt self-complementary duplex) | ADAR 133-199 (Homo sapiens, UniProt P55265) | AUC sedimentation velocity | double-stranded RNA, one strand shown |  | binding | binds |

A few entries again:
| Molecule | tested on | assay | system | setting | endpoint | result |
| --- | --- | --- | --- | --- | --- | --- |
| TTTTTTTTTTCGTATGGCACGGGGTTGGTGTTGGGTTGG (ssDNA; 5'-phosphate; G-quadruplex) | CSN2 16-224 (Bos taurus, UniProt P02666) | electrolyte-gated transistor sensor | single-stranded DNA |  | binding | no binding |
| GGTGACACAAGAAAGGTATCTTTG (dsDNA) | SPL2 1-415 (Malus domestica, UniProt D9ZJC1) | EMSA | double-stranded DNA, one strand shown |  | binding | no binding |
| colistin | Escherichia coli | broth microdilution | clinical isolate RKI-No_590/16 |  | MIC | ≤ 0.5 µg/mL |
| AATTAGTCGCCACGTGTTTTACTTTA (dsDNA) | HY5 1-158 (Solanum lycopersicum, UniProt Q9SM50) | EMSA | double-stranded DNA, one strand shown |  | binding | binds |
| DNA 1 CACTGGCCGTCTTACGGTCGCTCTGCTCGACG / DNA 2 CGACCGTAAGACGGCCAGTG (dsDNA; 20 bp, 3' 12 nt overhang) | RECQL 63-592 K325A (Bos taurus, UniProt A0JN36) | fluorescence anisotropy | double-stranded DNA | with: Mg2+ 3 mM | Kd | 18.5 ± 2.6 nM |
| CCAATCAATAGCTGCGGCCTGCGCAGGAGA (dsDNA) | ERF-D2 full length assumed (Solanum lycopersicum, UniProt A0A3Q7JX06) | EMSA | double-stranded DNA, one strand shown | competitor | binding | binds |
